Assay results of several laboratories.
Each numbered part is a random draw from the data of one study; scales do not carry over between parts. “And” joins repeats or separate records; there may be more than shown. Positions count from the first letter of the parent shown.

Study 1
Target: OGT, full length, His-tagged (human)
Method: phage display, sequencing
Medium: in vitro
Tested at: 1 µg OGT
Notes: single substitutions, 15-mer displayed peptide, unchanged parent 6.14
Relative to: input library
Reading: higher = stronger binding
Endpoint: fold enrichment
Starting sequence: peptide; VAYPNSYMPKYQIST
VAYPNSYMIKYQIST [P9I]: 2.22 fold
VAYPNSYMPKYQIPT [S14P]: 2.61 fold
VAYYNSYMPKYQIST [P4Y]: 9.55 fold
VAYPNPYMPKYQIST [S6P]: 14.1 fold
VAYPNSYMPKYYIST [Q12Y]: 0.887 fold
VAYPNSYKPKYQIST [M8K]: 1.64 fold
VAYPNAYMPKYQIST [S6A]: 7.99 fold
VAYPVSYMPKYQIST [N5V]: 4.22 fold
VAYPNSYMVKYQIST [P9V]: 0.873 fold
VAYGNSYMPKYQIST [P4G]: 7.32 fold
VAYPNSYMPKYQIDT [S14D]: 4.12 fold
VAYPNSYMPKYGIST [Q12G]: 0.692 fold
VAYPFSYMPKYQIST [N5F]: 7.92 fold
VAYPNSYQPKYQIST [M8Q]: 0.901 fold
QAYPNSYMPKYQIST [V1Q]: 5.55 fold
VAYPNSYMAKYQIST [P9A]: 1.27 fold
VAYPNGYMPKYQIST [S6G]: 0.145 fold
VAAPNSYMPKYQIST [Y3A]: 5.53 fold
VAYPNSLMPKYQIST [Y7L]: 2.69 fold
VAVPNSYMPKYQIST [Y3V]: 4.04 fold
VAYPNSYMPLYQIST [K10L]: 3.6 fold
VAYPNSYMPKYQISG [T15G]: 1.45 fold
VAYANSYMPKYQIST [P4A]: 6.75 fold
VAYPNSYMSKYQIST [P9S]: 0.765 fold
VAYPNSYMYKYQIST [P9Y]: 1.32 fold

Study 2
Target: CCNA1, cyclin fold, Cln2 fusion (human)
Method: yeast growth competition, sequencing
Medium: yeast
Notes: weak parent motif
Relative to: not given
Reading: higher = stronger binding
Endpoint: normalised enrichment score
Starting sequence: INSM1 docking peptide (human); PKAIRKLHFEDEV
L7C: 0.125
F9T: 0.0402
A3F: 0.32
R5W: -0.0798
E12R: 0.235
R5T: 0.152
E10N: 0.457
F9E: -0.19
H8V: 0.931
L7M: 0.0884
E12S: 0.827
K6I: 0.284
K6Y: 0.311
K6Q: 0.629
F9G: 0.0637
R5H: -0.055
D11T: 0.0581
R5D: 0.217
K6A: 0.548
E12H: 0.591
D11I: 0.604
H8S: 0.953
A3G: -0.079
F9W: 0.226
A3Y: -0.0488

Study 3
Target: BATF2, bZIP domain (human)
Method: DHFR protein complementation
Medium: yeast
Notes: single substitutions, most at no-binding floor
Relative to: wild-type JUN-FOS pair
Reading: higher = stronger binding
Endpoint: binding fitness
Starting sequence: JUN, bZIP domain (human); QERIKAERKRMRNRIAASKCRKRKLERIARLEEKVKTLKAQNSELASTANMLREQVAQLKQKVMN; partner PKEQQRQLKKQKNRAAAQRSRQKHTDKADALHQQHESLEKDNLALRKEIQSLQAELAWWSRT
T48Q: -0.223 natural log
Q55G: -1.2 natural log
L45I: -0.969 natural log
N42Q: -0.878 natural log
L45V: -1.33 natural log
R53K: -0.484 natural log
E33L: -0.443 natural log
M51C: -0.525 natural log
A46M: -0.266 natural log
E44G: -0.767 natural log
K39S: -0.427 natural log
E54N: -0.535 natural log
V35L: -0.505 natural log
A40K: -0.25 natural log

Study 4
Target: Histone acetyltransferase KAT6A, both winged helices, GST fusion (KAT6A, Homo sapiens, UniProt Q92794, residues 1-181)
Method: protein binding microarray
Molecule type: double-stranded DNA, one strand shown
Medium: in vitro
Tested at: not given
Notes: 8-mer, flanks averaged, mean of 2 arrays, mostly near background
Relative to: not given
Reading: higher = stronger binding
Endpoint: E-score
Target sequence (chain): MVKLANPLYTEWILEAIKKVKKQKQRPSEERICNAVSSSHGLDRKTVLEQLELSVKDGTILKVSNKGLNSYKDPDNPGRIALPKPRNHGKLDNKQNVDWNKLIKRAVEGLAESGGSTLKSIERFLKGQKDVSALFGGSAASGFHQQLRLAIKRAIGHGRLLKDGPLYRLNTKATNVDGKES
ATTGTCCC: 0.034
CTTAGTCA: -0.0577
GCGTAAGA: 0.154
ACTATTAC: 0.0667
ATTTATTG: -0.0364
AATAACAT: -0.0599
ACTGTACG: 0.00847
TGCAGCAA: -0.115
CACAGCTA: -0.222
GGCATGTA: -0.0635
ACTCTTGA: -0.173
GCTATTAA: -0.0132
GCCCGGAC: 0.076
AGGCTGAT: -0.201
CACATACG: 0.0731
CGGGATCA: 0.175
TGAGTCAA: -0.118
CCGGGCAC: 0.171
GGCCATCA: -0.0449
ATTTCAAA: -0.123
CTGGCACA: -0.138
ATGACCCC: -0.044
ACAGGCTG: -0.122
TAGGCGAA: -0.00894
AACAACCT: -0.204

Study 5
Target: Sal-like protein 4, full length isoform B (SALL4, Homo sapiens, UniProt Q9UJQ4-2, residues 1-616)
Method: universal PBM
Molecule type: double-stranded DNA, one strand shown
Medium: in vitro
Tested at: not given
Notes: 8-mer, flanks averaged, mean of replicates
Reading: higher = stronger binding
Endpoint: E-score
Target sequence (chain): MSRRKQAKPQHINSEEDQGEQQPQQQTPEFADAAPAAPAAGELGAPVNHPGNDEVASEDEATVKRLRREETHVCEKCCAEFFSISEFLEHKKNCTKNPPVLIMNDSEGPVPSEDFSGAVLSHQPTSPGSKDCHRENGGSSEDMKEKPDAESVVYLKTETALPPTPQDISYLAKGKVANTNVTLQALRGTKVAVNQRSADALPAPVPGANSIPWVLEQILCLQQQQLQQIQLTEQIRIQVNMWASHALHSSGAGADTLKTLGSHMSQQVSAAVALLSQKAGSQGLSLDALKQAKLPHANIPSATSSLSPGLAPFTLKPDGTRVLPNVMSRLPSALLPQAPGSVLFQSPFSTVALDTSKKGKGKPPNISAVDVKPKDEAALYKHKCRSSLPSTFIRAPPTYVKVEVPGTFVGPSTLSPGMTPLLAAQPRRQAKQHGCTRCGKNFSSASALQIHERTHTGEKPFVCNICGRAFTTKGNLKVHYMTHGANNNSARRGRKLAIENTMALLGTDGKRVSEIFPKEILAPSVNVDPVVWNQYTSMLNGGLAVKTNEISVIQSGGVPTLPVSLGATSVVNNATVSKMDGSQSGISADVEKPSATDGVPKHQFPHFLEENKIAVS
ACATTTGG: -0.0478
CGATTCTA: 0.0167
GATCCGTA: -0.208
CGTTCTGC: -0.0662
ACCGCATA: 0.214
GAGTCTTA: 0.0282
TACGGCGA: -0.0822
AAAATTAT: 0.425
GACCATAA: 0.187
CTAGACGC: -0.123
CGGCAATC: -0.226
AGGAATCC: -0.191
ATAAGGAG: 0.12
GATTACTA: 0.148
ATAGGCCG: -0.198
ATTCAAAC: 0.304
TCTAGAAA: 0.103
AGACACAA: 0.19
ATGGTACA: 0.123
AGCTCAAG: -0.153
CGTGTGTC: -0.113
GTTGCCAA: -0.0147
CCTGGCAG: -0.164
ACGTCGAC: 0.00927
CTGATTCA: -0.00148

Other studies, line by line
PhoQ, residues 284 288 289 292 302 303 ALSMDL — fold induction (PhoP, residues 12 14 15 18 19 LWHSL (Escherichia coli, UniProt P23836); Sort-seq, item: YFP reporter; E. coli; PhoQ-PhoP variant library, together with: 10 µM Mg2+; relative to: high Mg2+ state, higher = stronger signaling): 4.55 and 11.2

A few entries again (study 1):
VAAPNSYMPKYQIST [Y3A]: 5.53 fold
VAYPNSYMAKYQIST [P9A]: 1.27 fold
VAVPNSYMPKYQIST [Y3V]: 4.04 fold
VAYPNPYMPKYQIST [S6P]: 14.1 fold
VAYPNGYMPKYQIST [S6G]: 0.145 fold
VAYPFSYMPKYQIST [N5F]: 7.92 fold
VAYPNSYMPKYYIST [Q12Y]: 0.887 fold
VAYPNSYKPKYQIST [M8K]: 1.64 fold
VAYPNAYMPKYQIST [S6A]: 7.99 fold
